Measured values collected from several papers.
Compare with care: the assays were run in different laboratories. Numbers after ± are the reported error. Converted amounts (≈) assume the structure as drawn.

Compound	test	system	setting	scale	endpoint	result
NC12CNCCNCC(NCc3ccc(CNC(=O)CCCC(=O)NCc4ccc(-c5nncnn5)cc4)cc3)(CNCCNC1)CNCCNC2.[64Cu+2]	OLINDA dosimetry	liver	48 h pretargeting interval, added: huA33-TCO pretargeting	–	mean absorbed dose	0.0334 rad/mCi
COc1ccc(S(=O)(=O)N/N=C/c2ccc(C#N)cc2)cc1OC	–	Wistar rat, male, rat liver microsomes	10 µM, 24 h, pH 7.4, 37 °C	–	recovery	< 20%
CONC(=O)/C=C/c1cccc(S(=O)(=O)Nc2ccccc2)c1	–	human, severe liver dysfunction, plasma	intravenous, 400 mg/m^2 belinostat, cycle 1 day -7, geometric mean	baseline: metabolite over belinostat	Cmax metabolic ratio	0.134
Cc1ccc(OCC(=O)N(Cc2cccs2)c2ccn[nH]2)cc1	–	female Sprague-Dawley rat, plasma	intravenous, 1 mg/kg, single dose	–	Cmax	1330 ng/mL
O=c1c2ccccc2[se]n1CCCCCCn1[se]c2ccccc2c1=O	–	1% Soluplus in water	24 h, 25 °C, 10 mg/mL	–	solubility	167 ± 26 µg/mL (≈ 349 µM)
[123I]c1ccc2nc(-c3ccc(-n4ccnn4)nc3)cn2c1	–	Alzheimer's disease patients, venous plasma	intravenous, from 180 min	–	parent fraction	< 5%
CN1CCC[C@]1(C)/C=C/S(=O)(=O)NC(=O)Nc1c2c(cc3c1CCC3)CCC2	–	human, plasma	oral, 50 mg twice daily, day 14, multiple ascending dose	–	Cmax after second dose	6700 ng/mL
C[C@@H](O)[C@H](NC(=O)[C@@H]1CSSC[C@H](NC(=O)[C@@H](Cc2ccccc2)NC(=O)CN2CCN(CC(=O)O)CCN(CC(=O)O)CCN(CC(=O)O)CC2)C(=O)N[C@@H](Cc2ccc(O)cc2)C(=O)N[C@H](Cc2c[nH]c3ccccc23)C(=O)N[C@@H](CCCCN)C(=O)N[C@@H]([C@@H](C)O)C(=O)N1)C(=O)O	–	mouse serum	concentration not given, 37 °C	–	protein-bound activity	< 10%
N=C(N)NCCC[C@@H]1NC(=O)[C@H](Cc2c[nH]c3ccccc23)NC(=O)[C@@H](CC2CCCCC2)NC(=O)[C@@H]2CCCN2C(=O)[C@@H](NC(=O)CCc2ccccc2)CCCNC1=O	–	C57BL/6J mouse, plasma spinal cord	subcutaneous, 1 mg/kg single dose	–	MRT(0-last)	48.6 min
CC(C)c1cnc(-c2cc(Cl)ccc2F)cc1Nc1ccncc1C(=O)NC(CO)CO	–	human patients	oral, dose not given, worst grade 1	–	patients with any TRAE	23.8%
CCCC[C@@H]1NC(=O)[C@@H](NC(=O)[C@H](CCC(=O)O)NC(=O)CNC(=O)CN2CCN(CC(=O)O)CCN(CC(=O)O)CCN(CC(=O)O)CC2)CCCCNC(=O)C[C@@H](C(N)=O)NC(=O)[C@H](C(C)C)NC(=O)[C@@H]2CCCN2C(=O)[C@H](CCCNC(=N)N)NC(=O)CNC(=O)[C@H](Cc2c[nH]c3ccccc23)NC(=O)[C@H](CCCNC(=N)N)NC(=O)[C@@H](Cc2ccccc2)NC(=O)[C@H](Cc2c[nH]cn2)NC(=O)[C@H](CCC(=O)O)NC1=O [gallium-67 labelled]	–	C57 mice, B16/F1 flank melanoma	intravenous, 24 h	baseline: tumour over skin	tissue ratio	71.7
COC(=O)c1ccc(-c2cn(Cc3cc(Cl)ccc3O[11CH3])nn2)cc1	PET, two-tissue compartment model	rhesus monkey, brain Amygdala	dose not given	–	distribution volume	0.565 mL/cm³
CCCCCCCCN(CCC(=O)Nc1ccccc1)C(=O)c1ccccn1	chemical stability	mouse, culture medium	500 µM	–	half-life	> 1440 min
NC(=S)N/N=C/c1cc(Cl)ccc1O	cyclic voltammetry	DMF	Cu2+ complex	–	peak current ratio ipa/ipc	0.15
O=C(CCc1ccc(CNC(C(=O)OC2CCCC2)C2CCCCC2)cn1)NO (stereo not drawn)	–	healthy male humans	oral, 20 mg once daily, 7 days, median	baseline: day 7 over day 1	accumulation ratio AUC	1.14
CCCC(CCC)NC(=O)c1ccc(OS(=O)(=O)O)c(OC)c1	–	female Sprague-Dawley rat, plasma	oral, 50 mg/kg of parent drug	–	Tmax	52.8 min
CCCCCCCCCCCCCCCC(=O)N[C@@H](CCCCN)C(=O)N[C@@H](CCCCN)C(=O)N[C@@H](CO)C(=O)N[C@@H](CCCNC(=N)N)C(=O)N[C@@H](C)C(=O)N[C@@H](CC(C)C)C(=O)N[C@@H](Cc1ccccc1)C(N)=O	–	cynomolgus monkey, male	30 mg/kg, day 1	–	prothrombin time	12 ± 0.6 s
Cn1c(=O)oc2ccc(-c3ccc(CC(C#N)NC(=O)C4CNCCCO4)c(F)c3)cc21 (stereo not drawn)	–	human	oral, 40 mg once daily, TEAE, multiple ascending dose	–	mouth ulceration incidence	0%
Cc1cc(O)cc(O)c1C(=O)c1c2c3c(c(O)cc(C)c3oc1=O)C(=O)c1c(O)cc(O)cc1-2	–	Caco-2 monolayer	50 µM, 3 h, pH 7.4	baseline: AP to BL over BL to AP	efflux ratio	21.1
CC[C@H](C)[C@@H]1NC(=O)[C@H](Cc2ccccc2)NC(=O)[C@@H](NC(=O)[C@H](CCCNC(=N)N)NC(=O)[C@H](Cc2ccccc2)NC(=O)[C@H](Cc2ccccc2)NC(=O)[C@H](CCCCN)NC(=O)[C@H](CO)NC(=O)[C@H](CC(C)C)NC(=O)[C@H](CCCNC(=N)N)NC(=O)[C@H](CCSC)NC(=O)[C@H](C)N)CCCNC(=O)NCCCC[C@@H](C(=O)N[C@@H](CCCNC(=N)N)C(=O)N[C@@H](CCCCN)C(=O)N[C@@H](CCCCN)C(=O)O)NC(=O)[C@H](CC(C)C)NC1=O	circular dichroism	20% TFE in PBS	200 µM, pH 7.4, 25 °C	–	helicity	10.2%
C=CC(=O)Nc1cc(Nc2nccc(-c3cn(C)c4ccccc34)n2)c(OCC(F)(F)F)nc1NCCN(C)C	LC-MS	human liver microsomes	3 µM, 60 min, added: sulfaphenazole 6 µM	baseline: no inhibitor	remaining parent compound	58%
CCCC1OC2CC3C4CCC5=CC(=O)C=CC5(C)C4C(O)CC3(C)C2(C(=O)COC(=O)C(C)N)O1 (stereo not drawn)	–	rat lung homogenate	200 µg/mL, 24 h	–	hydrolysed conjugate	87.8%
CCCCn1c2ccc([N+](=O)[O-])cc2c(=O)n1Cc1ccccc1	resazurin	peritoneal macrophages, BALB/c mice	48 h, 10% FBS	–	CC50	5.1 ± 1.6 µM
CC(=O)N[C@H](CCNC(=O)c1cc(NC(=O)c2cc(NC(=O)c3cc(NC(=O)c4nccn4C)cn3C)cn2C)cn1C)C(=O)Nc1cn(C)c(C(=O)Nc2cc(C(=O)Nc3cc(C(=O)Nc4cc(C(=O)NCCCN(C)CCCN[14C](=O)c5cccc([14C](=O)O)c5)n(C)c4)n(C)c3)n(C)c2)n1	–	BALB/c male mice, lung	intraperitoneal, 15 nmol per animal, 24 h	–	tissue concentration	~0.1 mg/kg
CSc1cc(C)nc(SC)c1NC(=O)CN1CCN(CCSc2nc3ccccc3[nH]2)CC1.Cl	–	female Crl:CD1 (ICR) mice, olfactory bulb	intranasal, 10 µL solution daily, 120 min, 7 days dosing	–	tissue concentration	0 ng/g
CC(C)(Sc1cc[n+]([O-])cc1-c1ccc(C#N)c2ccccc12)C(=O)OC1OC(C(=O)O)C(O)C(O)C1O (stereo not drawn)	–	adult men, plasma	oral, 15 mg verinurad, severe renal impairment	baseline: normal renal function	Cmax increase	270%
CN(Cc1ccc(F)cc1)Cc1cc(=O)oc2cc(O)ccc12	–	HepG2 cell medium	0.5 mM, 180 min	–	remaining intact compound	> 99%

Repeated from above:
Compound	test	system	setting	scale	endpoint	result
Cn1c(=O)oc2ccc(-c3ccc(CC(C#N)NC(=O)C4CNCCCO4)c(F)c3)cc21 (stereo not drawn)	–	human	oral, 40 mg once daily, TEAE, multiple ascending dose	–	mouth ulceration incidence	0%
